Published values collected from several papers.
Compare with care: the assays were run in different laboratories.
Organism: Escherichia coli

| Compound | assay | test system | conditions | MIC |
| --- | --- | --- | --- | --- |
| CC[C@H](C)[C@H](NC(=O)[C@H](Cc1c[nH]c2ccccc12)NC(=O)c1ccccc1)C(=O)N[C@H](C(=O)N[C@@H](Cc1ccc(O)cc1)C(=O)N[C@@H](CCCCN)C(=O)N[C@@H](Cc1c[nH]c2ccccc12)C(=O)N1CCC[C@@H]1C(=O)N[C@@H](CCCNC(=N)N)C(=O)N[C@@H](CCCCN)C(=O)N[C@@H](CCCCN)C(=O)N[C@H](C(=O)N[C@@H](CCCNC(=N)N)C(=O)N[C@@H](Cc1ccc(O)cc1)C(=O)N[C@@H](Cc1c[nH]c2ccccc12)C(=O)N[C@H](C(=O)NCC(=O)N1CCC[C@H]1C(N)=O)[C@@H](C)O)C(C)C)C(C)C |  | DH5α | 16 h, 37 °C | > 100 µM |
| CC1(C)[C@H](NC(=O)/C(=N\OCC(=O)N2CCC(C(=O)O)C2)c2nsc(N)n2)C(=O)N1OS(=O)(=O)O (stereo partly drawn) | agar dilution | CDC 1001728, NDM-1 |  | > 64 µg/mL |
| CC[C@H](C)[C@H](NC(=O)[C@@H](CCCNC(=N)N)NC(=O)[C@H](CCCNC(=N)N)NC(=O)[C@H](CC(N)=O)NC(=O)[C@H](Cc1c[nH]c2ccccc12)NC(=O)[C@H](CCCNC(=N)N)NC(=O)[C@@H]1CCCN1C(=O)[C@H](CCCNC(=N)N)NC(=O)[C@@H]1CCCN1C(=O)[C@H](CC(C)C)NC(=O)[C@H](Cc1ccc(O)cc1)NC(=O)[C@@H]1CCCN1C(=O)[C@@H]1CCCN1C(=O)[C@H](CCCCN)NC(=O)[C@H](CC(=O)O)NC(=O)[C@@H](N)C(C)C)C(=O)N[C@@H](Cc1ccc(O)cc1)C(=O)N[C@@H](CC(N)=O)C(=O)N[C@H](CCCNC(=N)N)C(N)=O | broth microdilution | BW25113 | 18 h, 37 °C, 25% MHB2 | 8 µg/mL |
| CC(C)[C@H](NC(=O)CNC(=O)CNC(=O)[C@H](Cc1ccc(O)cc1)NC(=O)[C@H](CS)NC(=O)[C@@H](NC(=O)[C@H](Cc1c[nH]c2ccccc12)NC(=O)[C@H](Cc1ccccc1)NC(=O)[C@H](CS)NC(=O)[C@H](Cc1c[nH]c2ccccc12)NC(=O)[C@@H](N)CCCNC(=N)N)C(C)C)C(=O)N[C@@H](CS)C(=O)N[C@@H](Cc1ccc(O)cc1)C(=O)N[C@@H](CCCNC(=N)N)C(=O)N[C@@H](CCCNC(=N)N)C(=O)N[C@@H](CS)C(=O)N[C@@H](CCCNC(=N)N)C(=O)O | broth microdilution | ATCC 25922, Mueller-Hinton broth | 16 to 20 h, 37 °C | 2.2 µg/mL |
| O=C(O)c1ncsc1NS(=O)(=O)c1cccnc1 |  | NDM-1 producing | compound alone | > 2000 µM |
| CC[C@H](C)[C@H](NC(=O)[C@@H](NC(=O)[C@H](CCCCN)NC(=O)[C@H](CCCCN)NC(=O)[C@@H](NC(=O)[C@H](Cc1c[nH]c2ccccc12)NC(=O)[C@H](CCCCN)NC(=O)[C@H](Cc1c[nH]c2ccccc12)NC(=O)[C@H](CC(C)C)NC(=O)[C@H](CCCCN)NC(=O)[C@H](CCCCN)NC(=O)[C@@H](N)C(C)C)[C@@H](C)CC)C(C)C)C(N)=O |  |  | 24 h, 37 °C, Mueller-Hinton broth, no additive | 32 µM |
| CC[C@H](C)[C@H](NC(=O)[C@H](Cc1c[nH]c2ccccc12)NC(=O)[C@H](Cc1ccc(O)cc1)NC(=O)[C@H](CCCCN)NC(=O)[C@H](CC(C)C)NC(=O)[C@@H](N)CO)C(=O)N[C@@H](CCCNC(=N)N)C(=O)N[C@@H](Cc1ccc(O)cc1)C(=O)N[C@@H](CCCCN)C(=O)N[C@@H](CCCNC(=N)N)C(=O)N[C@@H](CCC(N)=O)C(=O)NCC(=O)N[C@@H](C)C(=O)N[C@@H](C)C(=O)N[C@@H](CCCNC(=N)N)C(=O)N[C@@H](Cc1ccccc1)C(N)=O | broth dilution | ATCC 25922, Mueller-Hinton broth | 24 h, 37 °C | 12.5 µM |
| CC(C)C[C@H](NC(=O)[C@H](CCCCN)NC(=O)C1CCC=CCCC(NC(=O)[C@H](CCCCN)NC(=O)[C@@H](N)CC(C)C)C(=O)N[C@@H](CCCCN)C(=O)N[C@@H](CC(C)C)C(=O)N[C@@H](CCCCN)C(=O)N2CCC[C@@H]2C(=O)NCC(=O)N[C@@H](CCCCN)C(=O)N[C@@H](CC(C)C)C(=O)N[C@@H](CCCCN)C(=O)N1)C(N)=O (stereo partly drawn) | broth microdilution | ATCC 25922, Mueller-Hinton broth | 18 h, 37 °C | 8 µM |
| CC(C)C[C@@H](NC(=O)[C@H](NC(=O)[C@@H](CCCCN)NC(=O)[C@@H](CCCCN)NC(=O)[C@@H](CC(C)C)NC(=O)[C@@H](Cc1c[nH]c2ccccc12)NC(=O)[C@@H](CCCCN)NC(=O)[C@@H](Cc1c[nH]c2ccccc12)NC(=O)[C@@H](CC(C)C)NC(=O)[C@@H](CCCCN)NC(=O)[C@@H](CCCCN)NC(=O)[C@H](N)C(C)C)C(C)C)C(N)=O |  |  | 24 h, 37 °C, Mueller-Hinton broth, KCl 4.5 mM | 16 µM |
| CCCCCCCC(=O)N[C@@H](CCN)C(=O)N[C@H](C(=O)N[C@@H](CCN)C(=O)N[C@H]1CCNC(=O)[C@H]([C@@H](C)O)NC(=O)[C@H](CCN)NC(=O)[C@H](CCN)NC(=O)[C@H](CC(C)C)NC(=O)[C@@H](Cc2ccc(F)cc2)NC(=O)[C@H](CCN)NC1=O)[C@@H](C)O | broth microdilution | mcr-1, colistin-resistant |  | 2 to 4 µg/mL |
| CC[C@H](C)[C@H](NC(=O)[C@@H](NC(=O)[C@H](CCCCN)NC(=O)[C@H](CCCCN)NC(=O)[C@@H](NC(=O)[C@H](Cc1c[nH]c2ccccc12)NC(=O)[C@H](CCCCN)NC(=O)[C@@H](NC(=O)[C@H](CC(C)C)NC(=O)[C@H](CCCCN)NC(=O)[C@H](CCCCN)NC(=O)[C@@H](N)C(C)C)[C@@H](C)CC)[C@@H](C)CC)C(C)C)C(N)=O |  |  | 24 h, 37 °C, Mueller-Hinton broth, NaCl 150 mM | 64 µM |
| CC[C@H](C)[C@H](NC(=O)[C@@H](CCCNC(=N)N)NC(=O)[C@H](CCCNC(=N)N)NC(=O)[C@@H]1CCCN1C(=O)[C@@H]1CCCN1C(=O)[C@H](CCCNC(=N)N)NC(=O)[C@@H]1CCCN1C(=O)[C@H](CCCNC(=N)N)NC(=O)[C@@H]1CCCN1C(=O)[C@H](Cc1ccccc1)NC(=O)[C@H](Cc1ccc(O)cc1)NC(=O)[C@@H]1CCCN1C(=O)[C@@H]1CCCN1C(=O)[C@H](CCCCN)NC(=O)[C@H](CC(=O)O)NC(=O)[C@@H](N)C(C)C)C(=O)N[C@@H](Cc1ccc(O)cc1)C(=O)N[C@@H](CC(N)=O)C(=O)N[C@H](CCCNC(=N)N)C(N)=O | broth microdilution | ATCC 25922 | 18 h, 37 °C, 25% MHB2 | 64 µg/mL |

Repeated from above:
| Compound | assay | test system | conditions | MIC |
| --- | --- | --- | --- | --- |
| CCCCCCCC(=O)N[C@@H](CCN)C(=O)N[C@H](C(=O)N[C@@H](CCN)C(=O)N[C@H]1CCNC(=O)[C@H]([C@@H](C)O)NC(=O)[C@H](CCN)NC(=O)[C@H](CCN)NC(=O)[C@H](CC(C)C)NC(=O)[C@@H](Cc2ccc(F)cc2)NC(=O)[C@H](CCN)NC1=O)[C@@H](C)O | broth microdilution | mcr-1, colistin-resistant |  | 2 to 4 µg/mL |
| CC[C@H](C)[C@H](NC(=O)[C@@H](NC(=O)[C@H](CCCCN)NC(=O)[C@H](CCCCN)NC(=O)[C@@H](NC(=O)[C@H](Cc1c[nH]c2ccccc12)NC(=O)[C@H](CCCCN)NC(=O)[C@@H](NC(=O)[C@H](CC(C)C)NC(=O)[C@H](CCCCN)NC(=O)[C@H](CCCCN)NC(=O)[C@@H](N)C(C)C)[C@@H](C)CC)[C@@H](C)CC)C(C)C)C(N)=O |  |  | 24 h, 37 °C, Mueller-Hinton broth, NaCl 150 mM | 64 µM |
